Assay results pooled from the literature.
Parts stem from different laboratories: compare values within a part only. Substitutions count along the parent as printed.

Study 1 — method: aptamer microarray, sandwich; molecule type: DNA with 2'F-ANA; sample: in vitro; tested at: 200 nM; added: Cy3 exosite-II aptamer, 400 nM; reading: higher = stronger binding; strand: GGTTGGTGTGGTTGG
Target: Prothrombin, mature alpha-thrombin (F2, Homo sapiens, UniProt P00734)
Setting: whole 15-mer aptamer, many near background
Modification	mean fluorescence intensity
2'F-ANA at 1 2 3 6 7 9 10 11 12 13 14 15	58.4 a.u.
2'F-ANA at 1 2 5 7 8 10 11 12 14 15	48.3 a.u.
2'F-ANA at 2 8 9 10 11 14 15	80.7 a.u.
2'F-ANA at 5 6 9 11 12 14	52.7 a.u.
2'F-ANA at 3 7 10 15	676 a.u.
2'F-ANA at 4 5 7 8 9 10 13 14 15	46.3 a.u.
2'F-ANA at 3 5 7 8 9 10 11 13 15	59.1 a.u.
2'F-ANA at 1 2 3 4 9 10 14 15	52.2 a.u.

Study 2 — target: CCNA2, cyclin fold, Cln2 fusion (human); method: yeast growth competition, sequencing; sample: yeast; setting: strong parent motif; relative to: not given; reading: higher = stronger binding; starting sequence: viral docking peptide; YKVKRRLVFGADD
Substitution	normalised enrichment score
YKVKRRLVFGAID [D12I]	6.39
YKVKGRLVFGADD [R5G]	1.67
YKVKRRLVDGADD [F9D]	0.756
YKVKARLVFGADD [R5A]	3.03
YKVKRRLVFMADD [G10M]	5.99
YKVKRRLVFFADD [G10F]	5.85
YKVKRRLVSGADD [F9S]	0.573
YKVKRRLTFGADD [V8T]	6.15
YKVKRRIVFGADD [L7I]	5.43
YKVKRDLVFGADD [R6D]	0.653
YKVKRRLVFGAYD [D12Y]	5.86
YKVVRRLVFGADD [K4V]	5.33
YKVKKRLVFGADD [R5K]	6.07
YKVKRWLVFGADD [R6W]	1.62
YKVKRRLVFGWDD [A11W]	6.45
YKVKRRTVFGADD [L7T]	0.717

Study 3 — method: protein binding microarray; molecule type: double-stranded DNA, one strand shown; sample: in vitro; tested at: not given; relative to: not given; reading: higher = stronger binding
Target: Histone acetyltransferase KAT6A, winged helix 2, GST fusion (KAT6A, Homo sapiens, UniProt Q92794, residues 85-181)
Setting: 8-mer, flanks averaged, mean of 2 arrays, mostly near background
Target sequence (chain): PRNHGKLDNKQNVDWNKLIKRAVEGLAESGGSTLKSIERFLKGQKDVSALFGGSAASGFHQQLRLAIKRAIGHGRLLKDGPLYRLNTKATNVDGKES
Strand	E-score
AATGTGGA	-0.0912
GGAAATAA	0.153
AACCAGTT	0.145
CACTTCGG	0.0995
CTATCTTC	-0.162
AAGAAATG	0.0784
ACTCCCGC	0.0537
AATAGCCT	-0.248

Study 4 — target: tungstate, free oxyanion; method: microfluidic competitive inhibition; sample: in vitro, cell-free expressed; tested at: not given; reading: lower = stronger binding
Setting: derived from inhibition constants, unchanged parent 2230 nM
Starting sequence: PafA, mature enzyme, eGFP fusion (Elizabethkingia meningoseptica, UniProt Q9KJX5); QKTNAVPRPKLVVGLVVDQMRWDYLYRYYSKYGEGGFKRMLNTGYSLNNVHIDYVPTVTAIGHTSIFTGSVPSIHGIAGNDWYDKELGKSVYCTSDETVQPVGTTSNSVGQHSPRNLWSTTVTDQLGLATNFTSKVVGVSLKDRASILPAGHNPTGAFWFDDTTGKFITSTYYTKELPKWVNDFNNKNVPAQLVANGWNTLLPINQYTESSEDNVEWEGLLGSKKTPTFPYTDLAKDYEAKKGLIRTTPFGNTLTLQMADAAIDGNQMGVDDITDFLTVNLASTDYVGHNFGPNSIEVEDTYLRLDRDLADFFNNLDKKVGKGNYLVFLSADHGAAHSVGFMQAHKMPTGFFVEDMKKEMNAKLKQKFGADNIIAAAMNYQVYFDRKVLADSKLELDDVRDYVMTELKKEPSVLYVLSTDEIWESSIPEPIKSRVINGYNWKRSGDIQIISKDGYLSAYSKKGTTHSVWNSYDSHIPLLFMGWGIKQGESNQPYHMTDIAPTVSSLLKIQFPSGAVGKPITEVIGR
Substitution	oxyanion analog dissociation constant [µM]
G219V	2.43
S146V	1.09
S210G	1.88
Y383G	1.72
T121G	1.87
P411G	2.27

Excerpt of the above (study 2):
Substitution	normalised enrichment score
YKVKRRLVSGADD [F9S]	0.573
YKVKRRLTFGADD [V8T]	6.15
YKVKRRIVFGADD [L7I]	5.43
YKVKRDLVFGADD [R6D]	0.653
